{"data": "Assay results of several laboratories", "note": "A part holds a random share of what one study measured.", "chain of UniProt P43403 (whole entry, looked up)": "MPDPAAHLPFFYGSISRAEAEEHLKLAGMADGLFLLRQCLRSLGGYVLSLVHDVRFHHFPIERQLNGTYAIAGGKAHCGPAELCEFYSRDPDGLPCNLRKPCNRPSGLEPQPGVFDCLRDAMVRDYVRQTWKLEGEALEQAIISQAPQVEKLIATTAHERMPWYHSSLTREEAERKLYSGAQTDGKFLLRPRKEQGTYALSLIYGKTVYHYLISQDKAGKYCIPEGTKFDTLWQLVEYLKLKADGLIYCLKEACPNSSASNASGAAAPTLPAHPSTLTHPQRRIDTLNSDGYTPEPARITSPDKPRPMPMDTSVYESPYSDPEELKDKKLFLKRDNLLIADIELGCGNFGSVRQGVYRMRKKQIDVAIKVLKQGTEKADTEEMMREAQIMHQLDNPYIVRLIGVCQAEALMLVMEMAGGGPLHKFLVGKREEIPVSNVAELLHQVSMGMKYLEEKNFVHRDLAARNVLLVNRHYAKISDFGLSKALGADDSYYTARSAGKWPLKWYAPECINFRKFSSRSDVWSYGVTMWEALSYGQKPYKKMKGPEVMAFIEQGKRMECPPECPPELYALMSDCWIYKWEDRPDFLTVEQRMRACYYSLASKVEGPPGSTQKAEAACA", "chain of UniProt P36897 (whole entry, looked up)": "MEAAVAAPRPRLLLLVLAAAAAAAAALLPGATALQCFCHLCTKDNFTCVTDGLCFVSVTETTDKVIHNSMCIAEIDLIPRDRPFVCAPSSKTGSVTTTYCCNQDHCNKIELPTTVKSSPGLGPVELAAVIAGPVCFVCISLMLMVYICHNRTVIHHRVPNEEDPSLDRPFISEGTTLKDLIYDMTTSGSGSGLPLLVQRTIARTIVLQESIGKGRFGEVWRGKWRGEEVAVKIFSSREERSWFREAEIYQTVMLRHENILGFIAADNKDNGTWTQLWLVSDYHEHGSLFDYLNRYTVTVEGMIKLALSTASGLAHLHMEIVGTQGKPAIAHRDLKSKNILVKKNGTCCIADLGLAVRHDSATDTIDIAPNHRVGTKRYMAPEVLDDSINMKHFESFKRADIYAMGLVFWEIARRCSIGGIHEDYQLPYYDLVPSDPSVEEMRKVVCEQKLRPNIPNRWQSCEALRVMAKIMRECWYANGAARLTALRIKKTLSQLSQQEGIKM", "chain of UniProt Q9UK32 (whole entry, looked up)": "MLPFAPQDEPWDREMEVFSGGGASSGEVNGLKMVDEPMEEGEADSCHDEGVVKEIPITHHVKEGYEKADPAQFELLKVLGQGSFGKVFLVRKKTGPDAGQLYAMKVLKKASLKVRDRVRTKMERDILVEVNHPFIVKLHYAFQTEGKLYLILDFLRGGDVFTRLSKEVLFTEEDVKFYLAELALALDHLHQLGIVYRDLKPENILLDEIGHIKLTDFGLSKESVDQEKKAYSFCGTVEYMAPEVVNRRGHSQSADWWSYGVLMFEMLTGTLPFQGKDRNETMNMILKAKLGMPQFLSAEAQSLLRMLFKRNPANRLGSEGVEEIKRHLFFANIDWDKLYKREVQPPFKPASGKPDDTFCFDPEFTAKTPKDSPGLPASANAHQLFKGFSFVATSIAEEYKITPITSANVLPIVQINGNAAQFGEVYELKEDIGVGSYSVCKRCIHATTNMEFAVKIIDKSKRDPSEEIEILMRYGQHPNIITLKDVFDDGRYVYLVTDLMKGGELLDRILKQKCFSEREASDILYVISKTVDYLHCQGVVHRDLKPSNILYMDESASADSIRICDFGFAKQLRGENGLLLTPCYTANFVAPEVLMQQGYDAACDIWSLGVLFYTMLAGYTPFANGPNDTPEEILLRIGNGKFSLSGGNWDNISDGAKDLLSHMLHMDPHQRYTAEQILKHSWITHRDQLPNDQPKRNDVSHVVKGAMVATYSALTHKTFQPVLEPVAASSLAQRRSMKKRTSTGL", "chain of UniProt Q32MK0 (whole entry, looked up)": "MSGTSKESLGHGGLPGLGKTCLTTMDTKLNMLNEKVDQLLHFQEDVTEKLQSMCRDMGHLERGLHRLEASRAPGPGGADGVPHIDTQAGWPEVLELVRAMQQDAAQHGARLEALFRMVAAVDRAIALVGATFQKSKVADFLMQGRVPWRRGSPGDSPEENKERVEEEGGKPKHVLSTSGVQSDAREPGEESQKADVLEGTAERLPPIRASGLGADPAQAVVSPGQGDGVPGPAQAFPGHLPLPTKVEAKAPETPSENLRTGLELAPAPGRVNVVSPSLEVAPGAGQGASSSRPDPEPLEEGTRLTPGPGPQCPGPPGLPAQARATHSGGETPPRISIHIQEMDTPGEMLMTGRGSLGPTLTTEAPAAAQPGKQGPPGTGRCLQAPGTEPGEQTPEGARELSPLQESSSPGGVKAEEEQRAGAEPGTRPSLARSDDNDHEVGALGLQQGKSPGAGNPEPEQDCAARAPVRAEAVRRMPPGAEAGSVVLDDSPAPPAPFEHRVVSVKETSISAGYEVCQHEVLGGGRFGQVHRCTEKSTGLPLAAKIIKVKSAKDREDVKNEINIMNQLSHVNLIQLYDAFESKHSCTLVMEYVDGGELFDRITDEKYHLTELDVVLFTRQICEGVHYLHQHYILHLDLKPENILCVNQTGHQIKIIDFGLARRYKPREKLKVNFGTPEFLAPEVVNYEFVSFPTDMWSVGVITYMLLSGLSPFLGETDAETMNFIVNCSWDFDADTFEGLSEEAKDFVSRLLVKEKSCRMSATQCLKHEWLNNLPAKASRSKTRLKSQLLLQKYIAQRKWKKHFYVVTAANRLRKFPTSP", "chain of UniProt P37023 (whole entry, looked up)": "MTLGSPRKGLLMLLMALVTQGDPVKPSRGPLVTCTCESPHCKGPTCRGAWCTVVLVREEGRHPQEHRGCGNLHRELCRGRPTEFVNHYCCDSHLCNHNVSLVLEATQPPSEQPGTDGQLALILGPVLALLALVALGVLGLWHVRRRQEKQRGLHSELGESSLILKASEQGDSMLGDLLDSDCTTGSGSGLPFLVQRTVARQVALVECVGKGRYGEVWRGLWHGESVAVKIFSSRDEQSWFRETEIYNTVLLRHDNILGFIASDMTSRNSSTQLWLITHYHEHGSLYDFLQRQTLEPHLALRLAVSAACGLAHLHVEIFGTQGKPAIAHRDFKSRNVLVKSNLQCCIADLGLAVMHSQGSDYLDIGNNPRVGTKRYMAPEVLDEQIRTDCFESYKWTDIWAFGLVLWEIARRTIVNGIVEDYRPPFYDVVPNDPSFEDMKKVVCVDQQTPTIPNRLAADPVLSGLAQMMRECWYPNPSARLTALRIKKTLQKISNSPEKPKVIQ", "chain of UniProt P10721 (whole entry, looked up)": "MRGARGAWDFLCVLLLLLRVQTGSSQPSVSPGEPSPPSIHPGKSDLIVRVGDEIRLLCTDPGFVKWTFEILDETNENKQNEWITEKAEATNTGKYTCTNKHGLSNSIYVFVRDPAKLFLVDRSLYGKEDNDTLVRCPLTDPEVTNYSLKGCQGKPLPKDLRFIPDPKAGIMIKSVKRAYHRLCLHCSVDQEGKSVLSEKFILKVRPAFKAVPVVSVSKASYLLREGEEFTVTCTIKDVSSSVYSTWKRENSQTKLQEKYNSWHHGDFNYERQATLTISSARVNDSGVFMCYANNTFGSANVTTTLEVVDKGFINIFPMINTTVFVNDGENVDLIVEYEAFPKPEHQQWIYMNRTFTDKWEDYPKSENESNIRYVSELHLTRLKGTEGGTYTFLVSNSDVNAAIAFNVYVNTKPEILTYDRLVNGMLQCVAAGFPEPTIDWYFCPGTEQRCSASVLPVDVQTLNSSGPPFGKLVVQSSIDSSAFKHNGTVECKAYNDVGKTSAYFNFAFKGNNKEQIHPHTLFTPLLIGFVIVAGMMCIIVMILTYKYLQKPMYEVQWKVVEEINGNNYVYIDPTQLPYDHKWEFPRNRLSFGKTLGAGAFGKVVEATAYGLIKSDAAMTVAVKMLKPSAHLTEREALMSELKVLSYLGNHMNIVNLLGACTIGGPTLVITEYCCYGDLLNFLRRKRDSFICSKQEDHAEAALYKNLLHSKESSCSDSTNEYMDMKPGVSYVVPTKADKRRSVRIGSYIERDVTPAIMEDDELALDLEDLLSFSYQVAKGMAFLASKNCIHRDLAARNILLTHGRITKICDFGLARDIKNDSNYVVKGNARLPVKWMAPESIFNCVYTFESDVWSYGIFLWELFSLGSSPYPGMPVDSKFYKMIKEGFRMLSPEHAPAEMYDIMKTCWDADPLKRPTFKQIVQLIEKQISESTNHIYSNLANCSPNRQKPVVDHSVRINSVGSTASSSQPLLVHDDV"}
{"data": "Sample 1", "target": "Cytoplasmic tyrosine-protein kinase BMX (BMX, Homo sapiens, UniProt P51813)", "observed": "enzyme activity", "mode": "inhibitor", "tested at": "0.5 µM", "relative to": "control", "chain of UniProt P51813 (whole entry, looked up)": "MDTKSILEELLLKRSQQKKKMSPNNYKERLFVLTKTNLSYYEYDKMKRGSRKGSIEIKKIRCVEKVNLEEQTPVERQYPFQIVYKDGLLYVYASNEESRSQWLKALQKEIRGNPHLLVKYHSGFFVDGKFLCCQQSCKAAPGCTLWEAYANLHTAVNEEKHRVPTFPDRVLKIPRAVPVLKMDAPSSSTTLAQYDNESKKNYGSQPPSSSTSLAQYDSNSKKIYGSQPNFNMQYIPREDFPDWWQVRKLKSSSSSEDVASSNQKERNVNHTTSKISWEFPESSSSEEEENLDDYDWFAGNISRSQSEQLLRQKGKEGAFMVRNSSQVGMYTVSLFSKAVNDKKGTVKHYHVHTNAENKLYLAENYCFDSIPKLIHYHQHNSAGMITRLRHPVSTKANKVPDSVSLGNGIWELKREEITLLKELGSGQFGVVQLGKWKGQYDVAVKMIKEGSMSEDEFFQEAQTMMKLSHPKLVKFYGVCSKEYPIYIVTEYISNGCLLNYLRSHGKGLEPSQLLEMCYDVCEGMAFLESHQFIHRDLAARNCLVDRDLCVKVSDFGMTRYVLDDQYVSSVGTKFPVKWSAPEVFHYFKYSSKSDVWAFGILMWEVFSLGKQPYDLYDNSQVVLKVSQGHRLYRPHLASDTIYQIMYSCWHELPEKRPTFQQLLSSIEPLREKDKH"}
{"SMILES": "CS(=O)(=O)CCNCc1ccc(-c2ccc3ncnc(Nc4ccc(OCc5cccc(F)c5)c(Cl)c4)c3c2)o1", "remaining activity": "105%"}
{"SMILES": "O=C(Nc1ccc(Cl)cc1)c1ccccc1NCc1ccncc1", "remaining activity": "90.5%"}
{"SMILES": "CCC(=O)Nc1ccc2ncnc(Nc3cccc(Br)c3)c2c1", "remaining activity": "98.7%"}
{"SMILES": "CN(C)CCCn1cc(C2=C(c3c[nH]c4ccccc34)C(=O)NC2=O)c2ccccc21", "remaining activity": "101%"}
{"SMILES": "CC(C)[C@H](CO)Nc1nc(Nc2cccc(Cl)c2)c2ncn(C(C)C)c2n1", "remaining activity": "84.3%"}
{"SMILES": "O=C1NC(=O)/C(=C/c2ccc3nccnc3c2)S1", "remaining activity": "98.6%"}
{"SMILES": "COc1cc2ncnc(N3CCN(C(=O)Nc4ccc(Oc5ccccc5)cc4)CC3)c2cc1OC", "remaining activity": "90.9%"}
{"SMILES": "COc1cc2ncnc(Nc3ccc(OCc4ccccc4)cc3)c2cc1OC", "remaining activity": "89.7%"}
{"SMILES": "Cc1ccc(NC(=O)c2ccc(CN3CCN(C)CC3)cc2)cc1Nc1nccc(-c2cccnc2)n1", "remaining activity": "99.5%"}
{"SMILES": "Cn1cnc2cc3c(Nc4cccc(Br)c4)ncnc3cc21", "remaining activity": "96.6%"}
{"SMILES": "CC(=O)O/N=C1/C(c2c(O)[nH]c3cc(Br)ccc23)=Nc2ccccc21", "remaining activity": "67.2%"}
{"SMILES": "CCOc1cc2ncnc(Nc3cccc(Br)c3)c2cc1OCC", "remaining activity": "95.5%"}
{"SMILES": "COc1ccc(Cl)cc1NC(=O)Nc1cc(C)nc2ccccc12", "remaining activity": "101%"}
{"SMILES": "COc1ccc(-c2cnc3c(-c4ccsc4)cnn3c2)cc1", "remaining activity": "90.6%"}
{"SMILES": "CC(C)c1nn(-c2c(Cl)cccc2Cl)c2nc(Cc3ccc(OCCO)cc3)[nH]c(=O)c12", "remaining activity": "104%"}
{"SMILES": "CCN1/C(=C/C(C)=O)Sc2ccc(OC)cc21", "remaining activity": "105%"}
{"SMILES": "Cn1cc(/C=C2\\C(=O)Nc3ccc(S(N)(=O)=O)cc32)c2ccccc21", "remaining activity": "77%"}
{"SMILES": "O=c1cc(N2CCOCC2)oc2c1ccc1ccccc12", "remaining activity": "92.7%"}
{"data": "Sample 2", "cell line": "HaCaT", "tested at": "100 µM", "time": "36 h"}
{"Structure (SMILES)": "CC(CCc1ccccc1)NCC(O)c1ccc(O)c(C(N)=O)c1 (stereo not drawn)", "viability": "51.4%"}
{"Structure (SMILES)": "O[C@H](CNC[C@@H](O)[C@H]1CCc2cc(F)ccc2O1)[C@@H]1CCc2cc(F)ccc2O1", "viability": "4.85%"}
{"Structure (SMILES)": "C=C1[C@H](CO)[C@@H](O)C[C@@H]1n1cnc2c(=O)[nH]c(N)nc21", "viability": "93.4%"}
{"Structure (SMILES)": "CCCN(CCC)C(=O)C(CCC(=O)O)NC(=O)c1ccccc1 (stereo not drawn)", "viability": "91.4%"}
{"Structure (SMILES)": "Cc1ncc([N+](=O)[O-])n1CC(C)O (stereo not drawn)", "viability": "82.5%"}
{"Structure (SMILES)": "CS(=O)(=O)OCCCCOS(C)(=O)=O", "viability": "97.1%"}
{"Structure (SMILES)": "COC(=O)Nc1nc2cc(C(=O)c3ccc(F)cc3)ccc2[nH]1", "viability": "17.2%"}
{"Structure (SMILES)": "CCC(C)(Oc1ccc(C2(c3ccc(OC(C)(CC)C(=O)O)cc3)CCCCC2)cc1)C(=O)O (stereo not drawn)", "viability": "99.3%"}
{"Structure (SMILES)": "CCOC(=O)[C@H](CCc1ccccc1)N[C@@H](C)C(=O)N1[C@H](C(=O)O)C[C@@H]2CCC[C@@H]21", "viability": "99.2%"}
{"Structure (SMILES)": "O=C(O)c1ccccc1OP(=O)(O)O", "viability": "79.2%"}
{"Structure (SMILES)": "CCC(=O)NS(=O)(=O)c1ccc(-c2c(-c3ccccc3)noc2C)cc1", "viability": "91.4%"}
{"Structure (SMILES)": "C[C@@H](NCCCc1cccc(C(F)(F)F)c1)c1cccc2ccccc12", "viability": "6.19%"}
{"data": "Sample 3", "SMILES": "CN(C)C(=O)Cn1cc(-c2nc([C@@](C)(c3ccc(-c4cnc(N)nc4)cc3)C3CC3)no2)cn1", "tested at": "1 µM"}
{"target": "ALK (Homo sapiens, UniProt Q9UM73, L1196M)", "assay": "cell-free assay, competition with immobilised ligand", "remaining binding": "90%"}
{"target": "TESK1 (Homo sapiens, UniProt Q15569)", "assay": "cell-free assay, competition with immobilised ligand", "remaining binding": "90%"}
{"target": "Mast/stem cell growth factor receptor Kit, autoinhibited (KIT, Homo sapiens, UniProt P10721)", "assay": "cell-free assay, competition with immobilised ligand", "remaining binding": "86%"}
{"target": "TGFBR1 (Homo sapiens, UniProt P36897)", "assay": "cell-free assay, competition with immobilised ligand", "remaining binding": "100%"}
{"target": "MAP3K12 (Homo sapiens, UniProt Q12852)", "assay": "cell-free assay, competition with immobilised ligand", "remaining binding": "80%"}
{"target": "CHEK2 (Homo sapiens, UniProt O96017)", "assay": "cell-free assay, competition with immobilised ligand", "remaining binding": "100%"}
{"target": "Ribosomal protein S6 kinase alpha-6, N-terminal kinase domain (RPS6KA6, Homo sapiens, UniProt Q9UK32)", "assay": "cell-free assay, competition with immobilised ligand", "remaining binding": "96%"}
{"target": "CDC42BPG (Homo sapiens, UniProt Q6DT37)", "assay": "competition binding", "remaining binding": "87%"}
{"target": "Tyrosine-protein kinase ABL1, non-phosphorylated (ABL1, Homo sapiens, UniProt P00519, F317I)", "assay": "binding, competition with immobilised ligand", "remaining binding": "96%"}
{"target": "ACVRL1 (Homo sapiens, UniProt P37023)", "assay": "binding, competition with immobilised ligand", "remaining binding": "84%"}
{"target": "MYLK3 (Homo sapiens, UniProt Q32MK0)", "assay": "cell-free assay, competition with immobilised ligand", "remaining binding": "100%"}
{"target": "PIP4K2C (Homo sapiens, UniProt Q8TBX8)", "assay": "cell-free assay, competition with immobilised ligand", "remaining binding": "100%"}
{"target": "ZAP70 (Homo sapiens, UniProt P43403)", "assay": "cell-free assay, competition with immobilised ligand", "remaining binding": "100%"}
{"data": "Mixed results", "organism": "Plasmodium berghei", "cells": "Huh-7", "strain": "GFP-expressing", "tested at": "10 µM", "time": "24 h", "setting": "liver stage"}
{"Structure (SMILES)": "OCCOCCN1CCN(C2=Nc3ccccc3Sc3ccccc32)CC1", "inhibition": "77.3%"}
{"Structure (SMILES)": "NCCCC(O)(P(=O)(O)O)P(=O)(O)O", "inhibition": "32%"}
{"note": "Repeated from above (sample 1):"}
{"SMILES": "CCC(=O)Nc1ccc2ncnc(Nc3cccc(Br)c3)c2c1", "remaining activity": "98.7%"}
{"SMILES": "CN(C)CCCn1cc(C2=C(c3c[nH]c4ccccc34)C(=O)NC2=O)c2ccccc21", "remaining activity": "101%"}
{"SMILES": "CC(C)[C@H](CO)Nc1nc(Nc2cccc(Cl)c2)c2ncn(C(C)C)c2n1", "remaining activity": "84.3%"}
{"SMILES": "O=C1NC(=O)/C(=C/c2ccc3nccnc3c2)S1", "remaining activity": "98.6%"}
{"SMILES": "COc1cc2ncnc(N3CCN(C(=O)Nc4ccc(Oc5ccccc5)cc4)CC3)c2cc1OC", "remaining activity": "90.9%"}
